{"data": "Experimental data of several laboratories", "note": "A part holds a random share of what one study measured. Several values in a cell are separate wells, animals, samples, runs or records.", "UniProt Q99558, sequence (whole entry, looked up)": "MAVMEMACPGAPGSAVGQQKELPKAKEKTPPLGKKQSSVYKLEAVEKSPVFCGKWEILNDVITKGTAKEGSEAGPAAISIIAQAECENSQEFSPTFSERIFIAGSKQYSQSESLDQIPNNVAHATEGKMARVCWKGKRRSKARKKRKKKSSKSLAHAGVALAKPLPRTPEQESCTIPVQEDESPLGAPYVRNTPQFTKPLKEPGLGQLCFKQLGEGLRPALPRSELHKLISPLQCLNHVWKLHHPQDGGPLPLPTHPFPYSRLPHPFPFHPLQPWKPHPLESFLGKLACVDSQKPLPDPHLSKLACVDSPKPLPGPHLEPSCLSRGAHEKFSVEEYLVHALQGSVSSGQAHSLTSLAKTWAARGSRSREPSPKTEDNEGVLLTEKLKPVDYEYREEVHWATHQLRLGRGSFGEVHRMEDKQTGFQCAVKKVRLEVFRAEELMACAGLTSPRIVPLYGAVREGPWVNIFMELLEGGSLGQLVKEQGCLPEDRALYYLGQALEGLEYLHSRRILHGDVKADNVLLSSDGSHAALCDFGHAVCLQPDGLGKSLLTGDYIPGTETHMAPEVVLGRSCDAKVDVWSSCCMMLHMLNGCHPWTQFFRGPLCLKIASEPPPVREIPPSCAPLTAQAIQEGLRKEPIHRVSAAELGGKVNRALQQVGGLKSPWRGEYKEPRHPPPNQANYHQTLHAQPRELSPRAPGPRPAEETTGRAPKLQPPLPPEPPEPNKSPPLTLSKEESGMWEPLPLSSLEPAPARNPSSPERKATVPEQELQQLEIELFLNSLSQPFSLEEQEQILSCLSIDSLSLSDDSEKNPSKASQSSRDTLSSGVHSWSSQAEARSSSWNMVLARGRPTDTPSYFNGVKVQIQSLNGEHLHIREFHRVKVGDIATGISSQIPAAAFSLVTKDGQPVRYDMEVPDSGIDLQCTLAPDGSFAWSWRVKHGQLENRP", "UniProt P50750, sequence (whole entry, looked up)": "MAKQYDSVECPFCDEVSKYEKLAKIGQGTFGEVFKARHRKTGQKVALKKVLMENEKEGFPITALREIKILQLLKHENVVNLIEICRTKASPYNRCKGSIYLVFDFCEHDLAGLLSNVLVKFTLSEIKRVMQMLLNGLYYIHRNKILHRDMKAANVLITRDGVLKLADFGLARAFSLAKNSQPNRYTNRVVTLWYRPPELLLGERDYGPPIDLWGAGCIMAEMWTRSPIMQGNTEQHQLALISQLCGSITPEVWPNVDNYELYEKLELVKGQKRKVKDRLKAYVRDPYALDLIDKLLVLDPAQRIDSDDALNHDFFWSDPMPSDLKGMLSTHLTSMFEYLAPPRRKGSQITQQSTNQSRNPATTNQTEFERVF", "UniProt O15075, sequence (whole entry, looked up)": "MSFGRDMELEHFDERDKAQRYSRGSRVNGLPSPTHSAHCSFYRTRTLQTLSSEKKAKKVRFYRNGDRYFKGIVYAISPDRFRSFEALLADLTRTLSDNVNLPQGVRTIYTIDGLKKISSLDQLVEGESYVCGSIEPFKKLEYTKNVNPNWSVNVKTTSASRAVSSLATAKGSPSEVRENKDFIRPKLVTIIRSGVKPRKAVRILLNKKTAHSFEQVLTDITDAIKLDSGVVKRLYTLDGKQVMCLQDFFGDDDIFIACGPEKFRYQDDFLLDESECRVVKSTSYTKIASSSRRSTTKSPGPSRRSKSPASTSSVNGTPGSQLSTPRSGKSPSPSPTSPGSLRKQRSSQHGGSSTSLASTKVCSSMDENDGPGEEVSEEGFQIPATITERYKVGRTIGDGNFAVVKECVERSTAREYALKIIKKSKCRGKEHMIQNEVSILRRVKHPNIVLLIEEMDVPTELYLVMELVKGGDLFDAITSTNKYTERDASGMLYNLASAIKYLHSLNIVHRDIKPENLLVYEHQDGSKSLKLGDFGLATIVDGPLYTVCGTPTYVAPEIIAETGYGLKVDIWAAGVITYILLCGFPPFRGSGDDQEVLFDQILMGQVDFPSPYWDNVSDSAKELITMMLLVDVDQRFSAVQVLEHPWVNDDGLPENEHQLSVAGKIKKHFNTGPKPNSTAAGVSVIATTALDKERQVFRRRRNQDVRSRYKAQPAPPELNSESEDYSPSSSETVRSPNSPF", "UniProt Q8TDX7, sequence (whole entry, looked up)": "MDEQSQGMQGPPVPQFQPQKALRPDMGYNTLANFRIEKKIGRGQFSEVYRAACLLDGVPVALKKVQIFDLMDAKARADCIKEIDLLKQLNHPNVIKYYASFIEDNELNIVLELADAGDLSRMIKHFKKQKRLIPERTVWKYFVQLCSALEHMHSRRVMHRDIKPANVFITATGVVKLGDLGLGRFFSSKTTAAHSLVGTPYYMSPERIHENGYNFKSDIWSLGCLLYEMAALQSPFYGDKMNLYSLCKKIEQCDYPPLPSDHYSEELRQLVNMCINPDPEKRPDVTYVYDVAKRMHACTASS", "UniProt P29376, sequence (whole entry, looked up)": "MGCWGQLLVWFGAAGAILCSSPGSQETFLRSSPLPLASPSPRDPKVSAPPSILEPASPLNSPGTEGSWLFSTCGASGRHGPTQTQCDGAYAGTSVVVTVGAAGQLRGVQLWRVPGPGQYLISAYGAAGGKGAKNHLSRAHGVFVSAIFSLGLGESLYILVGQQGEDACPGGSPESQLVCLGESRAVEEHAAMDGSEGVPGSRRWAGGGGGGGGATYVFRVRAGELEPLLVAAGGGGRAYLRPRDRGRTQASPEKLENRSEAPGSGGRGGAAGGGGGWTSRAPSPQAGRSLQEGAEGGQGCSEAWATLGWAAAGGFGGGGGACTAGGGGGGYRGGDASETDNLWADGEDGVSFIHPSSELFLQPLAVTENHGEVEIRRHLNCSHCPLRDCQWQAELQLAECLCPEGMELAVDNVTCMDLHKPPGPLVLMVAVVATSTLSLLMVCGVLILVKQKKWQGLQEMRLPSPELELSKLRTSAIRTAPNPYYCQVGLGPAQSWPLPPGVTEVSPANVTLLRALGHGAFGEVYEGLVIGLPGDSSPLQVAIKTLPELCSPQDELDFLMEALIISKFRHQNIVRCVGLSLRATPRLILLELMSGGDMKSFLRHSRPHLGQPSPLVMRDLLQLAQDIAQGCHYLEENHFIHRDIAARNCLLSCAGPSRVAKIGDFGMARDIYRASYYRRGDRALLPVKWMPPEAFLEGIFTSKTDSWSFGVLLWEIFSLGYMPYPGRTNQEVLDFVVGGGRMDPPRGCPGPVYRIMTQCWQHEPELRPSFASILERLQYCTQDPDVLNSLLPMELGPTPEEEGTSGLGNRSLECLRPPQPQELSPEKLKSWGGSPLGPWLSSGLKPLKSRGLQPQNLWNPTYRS", "UniProt Q16659, sequence (whole entry, looked up)": "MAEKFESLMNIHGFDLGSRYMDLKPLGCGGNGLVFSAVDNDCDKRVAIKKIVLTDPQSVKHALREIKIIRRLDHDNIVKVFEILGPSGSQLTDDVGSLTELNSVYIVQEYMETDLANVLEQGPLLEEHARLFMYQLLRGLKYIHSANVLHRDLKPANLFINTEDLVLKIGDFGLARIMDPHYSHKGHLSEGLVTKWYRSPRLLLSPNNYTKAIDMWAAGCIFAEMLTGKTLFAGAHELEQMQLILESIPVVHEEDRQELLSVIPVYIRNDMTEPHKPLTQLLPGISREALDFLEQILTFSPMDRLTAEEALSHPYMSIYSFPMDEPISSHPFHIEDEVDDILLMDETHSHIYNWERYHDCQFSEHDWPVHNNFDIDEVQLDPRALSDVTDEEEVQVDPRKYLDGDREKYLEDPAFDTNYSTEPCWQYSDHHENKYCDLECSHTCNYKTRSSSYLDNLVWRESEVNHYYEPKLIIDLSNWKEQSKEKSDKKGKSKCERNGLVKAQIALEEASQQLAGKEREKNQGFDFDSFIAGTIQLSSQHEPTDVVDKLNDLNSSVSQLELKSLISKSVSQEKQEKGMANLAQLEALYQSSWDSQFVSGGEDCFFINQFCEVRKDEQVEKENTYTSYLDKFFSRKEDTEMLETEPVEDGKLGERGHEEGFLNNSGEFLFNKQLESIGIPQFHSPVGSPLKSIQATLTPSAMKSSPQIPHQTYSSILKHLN"}
{"data": "Block 1", "SMILES": "COc1cc(C(=O)N2CCC(N3CCN(C)CC3)CC2)ccc1Nc1ncc2c(n1)N(C)c1ccccc1C(=O)N2C"}
{"target or system": "PKD1 mouse", "assay": "KiNativ profiling", "test system": "mouse brain lysate", "setting": "0.1 µM, LYS1 site, added: ADP acyl phosphate probe", "inhibition": "-7.9%"}
{"target or system": "CaMK2g (mouse)", "assay": "probe labelling, KiNativ, refers to: Lys1 site peptide", "test system": "brain tissue lysate (mouse)", "setting": "0.1 µM, added: ADP acyl-phosphate probe", "inhibition": "-32.7%"}
{"target or system": "PI4KA human", "assay": "KiNativ profiling", "test system": "human PBMC lysate", "setting": "concentration not given, ATP probe, ATP site", "inhibition": "10.2%"}
{"target or system": "BRSK2 (mouse)", "assay": "probe labelling, KiNativ ADP probe", "test system": "mouse brain lysate", "setting": "0.1 µM, LYS2 labelled site", "inhibition": "14.8%"}
{"target or system": "human PBMC", "assay": "probe labeling, inhibitor, KiNativ profiling, refers to: DTGHIYAMkILR", "test system": "cell lysate", "setting": "concentration not given, LYS1 site, added: ATP acyl-phosphate probe", "inhibition": "0.3%"}
{"data": "Block 2", "organism": "Sarcocystis neurona", "observed": "parasite growth", "tested at": "10 µM", "time": "96 h", "notes": "first screen", "baseline": "untreated"}
{"Compound": "CCCCN1CCCC1CNC(=O)c1cc(C#N)c2ccccc2c1OC (centres unmarked)", "log2 fold change": -0.27}
{"Compound": "CCOC(=O)C1=C(C)NC(C)=C(C(=O)OC)C1c1cccc([N+](=O)[O-])c1 (centres unmarked)", "log2 fold change": -1.11}
{"Compound": "COC(=O)Nc1nc2cc(C(=O)c3ccc(F)cc3)ccc2[nH]1", "log2 fold change": -0.56}
{"Compound": "CC(C)[C@H](N)C(=O)OCCOCn1cnc2c(=O)[nH]c(N)nc21", "log2 fold change": -0.12}
{"Compound": "CC=CC(=O)N(CC)c1ccccc1C (mixture of isomers)", "log2 fold change": 0.14}
{"Compound": "CC(CCc1ccccc1)NCC(O)c1ccc(O)c(C(N)=O)c1 (centres unmarked)", "log2 fold change": 0.21}
{"data": "Block 3", "Structure (SMILES)": "CCS(=O)(=O)c1cc2cc(C[C@](O)(CC(C)(C)c3ccc(F)cc3C(N)=O)C(F)(F)F)[nH]c2cn1", "observed": "cell-free assay", "method": "competition with immobilised ligand", "tested at": "1 µM"}
{"target": "NEK7 (Homo sapiens, UniProt Q8TDX7)", "remaining binding": "100%"}
{"target": "TNNI3K (Homo sapiens, UniProt Q59H18)", "remaining binding": "80%"}
{"target": "Receptor-type tyrosine-protein kinase FLT3, autoinhibited (FLT3, Homo sapiens, UniProt P36888)", "remaining binding": "85%"}
{"target": "AXL (Homo sapiens, UniProt P30530)", "remaining binding": "89%"}
{"target": "MAPK6 (Homo sapiens, UniProt Q16659)", "remaining binding": "100%"}
{"target": "FLT3 (Homo sapiens, UniProt P36888, F691L/ITD)", "remaining binding": "95%"}
{"target": "EPHB4 (Homo sapiens, UniProt P54760)", "remaining binding": "100%"}
{"target": "PNCK (Homo sapiens, UniProt Q6P2M8)", "remaining binding": "77%"}
{"target": "MAPK9 (Homo sapiens, UniProt P45984)", "remaining binding": "100%"}
{"target": "BMX (Homo sapiens, UniProt P51813)", "remaining binding": "74%"}
{"target": "DCLK1 (Homo sapiens, UniProt O15075)", "remaining binding": "99%"}
{"target": "LTK (Homo sapiens, UniProt P29376)", "remaining binding": "97%"}
{"target": "MAP3K14 (Homo sapiens, UniProt Q99558)", "remaining binding": "88%"}
{"target": "CDK9 (Homo sapiens, UniProt P50750)", "remaining binding": "100%"}
{"target": "STK3 (Homo sapiens, UniProt Q13188)", "remaining binding": "97%"}
{"target": "CIT (Homo sapiens, UniProt O14578)", "remaining binding": "100%"}
{"data": "Block 4", "cell line": "mouse MPNST tumor cells", "method": "high-content immunofluorescence imaging", "refers to": "nuclear SOX9", "tested at": "10 µM", "time": "12 h", "notes": "mean of 2 replicates", "baseline": "DMSO control", "reading": "higher = more nuclear SOX9"}
{"SMILES": "C=C1C(=O)O[C@@H](CCCCCCCC)[C@@H]1C(=O)O.C=C1C(=O)O[C@H](CCCCCCCC)[C@H]1C(=O)O", "nuclear SOX9 intensity": "90.9 % of DMSO"}
{"SMILES": "CCOC(=O)/C=C(C)/C=C/C=C(C)/C=C/c1c(C)cc(OC)c(C)c1C", "nuclear SOX9 intensity": "126 % of DMSO"}
{"SMILES": "CC(C)(Oc1ccc(Cl)cc1)C(=O)O", "nuclear SOX9 intensity": "90.4 % of DMSO and 91.1 % of DMSO"}
{"SMILES": "CCN(CC)C(=O)c1ccc(Nc2nc(OCC3CCCCC3)c3[nH]cnc3n2)cc1", "nuclear SOX9 intensity": "161 % of DMSO"}
{"SMILES": "Cc1cc(CC(=O)O)n(C)c1C(=O)c1ccc(Cl)cc1", "nuclear SOX9 intensity": "93.6 % of DMSO"}
{"SMILES": "COc1ccc(COc2ccc(CC#N)cc2)cc1", "nuclear SOX9 intensity": "94.1 % of DMSO"}
{"SMILES": "CC(C)C[C@@H](C(=O)N[C@@H](Cc1ccc(OCc2ccccc2)cc1)C(=O)NC(C)(C)C)N(C)Cc1ccc(C(C)(C)C)cc1", "nuclear SOX9 intensity": "110 % of DMSO"}
{"SMILES": "COCCCC/C(=N\\OCCN)c1ccc(C(F)(F)F)cc1", "nuclear SOX9 intensity": "152 % of DMSO"}
{"note": "Repeated from above (block 2):"}
{"Compound": "CCCCN1CCCC1CNC(=O)c1cc(C#N)c2ccccc2c1OC (centres unmarked)", "log2 fold change": -0.27}
{"Compound": "CCOC(=O)C1=C(C)NC(C)=C(C(=O)OC)C1c1cccc([N+](=O)[O-])c1 (centres unmarked)", "log2 fold change": -1.11}
{"Compound": "COC(=O)Nc1nc2cc(C(=O)c3ccc(F)cc3)ccc2[nH]1", "log2 fold change": -0.56}
{"Compound": "CC(C)[C@H](N)C(=O)OCCOCn1cnc2c(=O)[nH]c(N)nc21", "log2 fold change": -0.12}
